Results pooled from the literature.
Every numbered part comes from another study and shows a few of its results, in no order.

Set 1 — method: RNA Bind-n-Seq; form: RNA; medium: in vitro; concentration: 365 nM; relative to: no-protein control; direction: higher = stronger binding
Target: RNA binding protein fox-1 homolog 2, RRM domain, GST-SBP tag (RBFOX2, Homo sapiens, UniProt O43251-10, residues 100-194)
Setting: natural RNA segment, single round, ends assumed
Target sequence (chain): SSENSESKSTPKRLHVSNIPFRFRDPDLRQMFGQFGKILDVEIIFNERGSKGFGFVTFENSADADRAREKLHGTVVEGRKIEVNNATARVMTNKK
| Oligonucleotide | RBNS enrichment (R) |
| --- | --- |
| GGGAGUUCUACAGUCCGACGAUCGUGGCCCAGCAGCAUGGCCUGCAUCUGGAAGGACACAGGUUGCCAGAGCCCCUGGCACAACUCUAGCAUAUCUGUGAGCAGCUGUUCCCUGUAGCCACUGCCCAGCACCUUGGAAUUCUCGGGUGCCAA | 0.733 |
| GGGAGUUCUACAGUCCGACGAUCGCAGAUUACAGAAUGUUGCCUUGUUUUCCUUGGAAAUUUUGCAAAUUGUUAUGUGAAAUUUUAGGGUAACGGUGAUUAAGCUCUGCACUGGUAUUUGGAAUUUUUUUUCCUGGAAUUCUCGGGUGCCAA | 0.374 |
| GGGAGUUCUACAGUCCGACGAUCCACACAGUGAUUGACCUGGUCCCACUCCAUUGGGGAAGAAAAGAUACAGAUGUUUGGUUUGGCCAGCUGACAAGGAAGCAGUCCAUAGAAGAGAUGGGCUCAGCCUGAACUGGAAUUCUCGGGUGCCAA | 0.517 |
| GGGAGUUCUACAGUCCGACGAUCGAUGUAGUAGAACAUGCCCUGCAGGAAGAAAAUGUUUUCUCUCCUGCGUAUGUUAAGAGGAAAUCAGUUUAAAAUGCCUGCUAAUCAAAUGUCGACUCAGCUAACCAUAUUGGAAUUCUCGGGUGCCAA | 3.01 |
| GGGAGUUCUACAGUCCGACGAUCAUAGACACCCCGUCUUAAGCACCAGCUCCUCUUGGGUGCCCCCAGAGCCCCUGCAACUGUUAUCCACAUACAACAGGGAUAUCGGACUGCUUUCUUCUUCCGGCUGGUACUGGAAUUCUCGGGUGCCAA | 0.263 |
| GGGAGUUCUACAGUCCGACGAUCUCUAUGUUCAAGACGUAGCUGCAAUAAAAUCCCAGUAGUAAAGGCUCAUUUAGCUCUGUAGCUUUCGGCUCAAUUAAUGUACUUCCUUAUAGUGAAUGAGAAGUGGUAGUUGGAAUUCUCGGGUGCCAA | 0.6 |
| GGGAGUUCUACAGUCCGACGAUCAUGAGUUUAAUCAUUGUUCAUUUAUUGCCUUUAGGGCUGAGGGAAAGGGAAGGUUUGUUUUUUUUUCUCCCCAUUUUCCCCCAUUCUGUCUUUCUUUUGGUGACUUACACUGGAAUUCUCGGGUGCCAA | 0.523 |
| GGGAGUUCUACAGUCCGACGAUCUACAAGACUUCAUAAUGGUUUUGUGUGCUCUCGAGAGAGUACCUGCAGACUAGUUUUGGAUACAUUCACAUUUUGUACGUUUUCAUAUAAGCUGACAUAGUGUGAUUUGCUGGAAUUCUCGGGUGCCAA | 0.249 |
| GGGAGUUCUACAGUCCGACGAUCAUCUGCACUUGCUCAUAGGCCGGUUCCUUUUAUUUGAAUAAUAAAUAAAGCUAGUUCUAUUGAAAUGAACCCUUCGGCACCCUCUGCUCUUUAUCACACAGUUGUUGGGUUGGAAUUCUCGGGUGCCAA | 0.671 |
| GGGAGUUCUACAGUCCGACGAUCCUUGUGUGUGCGCGCAAGGCCCCUCUCUGCACAGGGGUUCUUCGGGGGAGGGGGUAUUUGCAAAACCUUAAUUUUGUUAAAAUGGGGGACUCUGUCAGGGGACUCUGUCAUGGAAUUCUCGGGUGCCAA | 0.585 |
| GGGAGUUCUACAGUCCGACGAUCGCUAGUGUGGAGCUCAGCAUCCCCACCCCACCCCUCCUCCCUGUAGAGCUGAUUUGAGGCCUCCUUCUGGGGCUGGGCUCUGCAGGCCAGGUGGGUGUGGCCUGUGUUUUUGGAAUUCUCGGGUGCCAA | 3.41 |
| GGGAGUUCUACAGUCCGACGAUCUAAAAAAAAAAUGCAAGCUGUCAGGAUGCUUAAGCUCUUUUCAGACAUCUGCAGUUUCAUCCCUACCUUGUUCACAUACCAUCCAAGAGGCACAUAGGCUACCCAAGAGAUGGAAUUCUCGGGUGCCAA | 1.13 |

Set 2 — method: universal PBM; form: double-stranded DNA, one strand shown; medium: in vitro; concentration: not given; direction: higher = stronger binding
Target: Sal-like protein 4, full length isoform B (SALL4, Homo sapiens, UniProt Q9UJQ4-2, residues 1-616)
Setting: 8-mer, flanks averaged, mean of replicates
Residues (chain): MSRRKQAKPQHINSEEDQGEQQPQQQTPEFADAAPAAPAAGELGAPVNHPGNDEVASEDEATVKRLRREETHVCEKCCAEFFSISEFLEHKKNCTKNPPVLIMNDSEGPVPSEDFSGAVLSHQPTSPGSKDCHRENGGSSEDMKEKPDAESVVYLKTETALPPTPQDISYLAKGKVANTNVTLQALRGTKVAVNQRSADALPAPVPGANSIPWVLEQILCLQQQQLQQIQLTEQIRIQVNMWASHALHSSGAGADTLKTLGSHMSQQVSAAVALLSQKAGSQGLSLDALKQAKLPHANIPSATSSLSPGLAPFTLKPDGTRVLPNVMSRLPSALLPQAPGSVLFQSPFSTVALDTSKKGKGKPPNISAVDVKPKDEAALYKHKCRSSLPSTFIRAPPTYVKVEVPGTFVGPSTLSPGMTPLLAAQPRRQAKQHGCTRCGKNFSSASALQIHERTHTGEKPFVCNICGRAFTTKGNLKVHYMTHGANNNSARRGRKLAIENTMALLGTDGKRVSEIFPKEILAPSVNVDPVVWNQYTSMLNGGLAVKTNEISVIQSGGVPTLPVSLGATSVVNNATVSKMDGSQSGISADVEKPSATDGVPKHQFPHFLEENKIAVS
| Oligonucleotide | E-score |
| --- | --- |
| AGCGTTGC | -0.192 |
| CCTATGCC | -0.0514 |
| ACTTTTAG | 0.0518 |
| ACACTTCA | 0.198 |
| CAGTCTCG | -0.152 |
| GTTACACA | 0.017 |
| AGCGAGTA | -0.124 |
| CACCAGTA | 0.1 |
| AACACCGG | -0.112 |
| GCTAGATA | 0.12 |
| GTTGGGCA | -0.119 |
| AGACGCTC | -0.216 |
| CGTCTTAG | -0.0306 |
| GCCAAAGC | -0.146 |
| AACTGGCT | -0.0307 |
| ACGCTACT | -0.0546 |
| ACTTCTTG | -0.00379 |
| TCGTGAGA | -0.0666 |
| CAGATGCG | -0.12 |
| AACGCCGT | -0.125 |
| CGTTCGTC | -0.191 |
| AACGCTAT | 0.0603 |
| GCTTTGTA | 0.0763 |
| CGAGAACG | -0.0902 |
| CCCGACAA | 0.017 |

Set 3 — method: RNA Bind-n-Seq; form: RNA; medium: in vitro; concentration: 1 µM; setting: whole 134-nt RNA, ends assumed; together with: 150 mM KCl; relative to: input library; direction: higher = stronger binding
Target: Ras GTPase-activating protein-binding protein 1, RRM domain (G3BP1, Homo sapiens, UniProt Q13283)
UniProt Q13283, sequence (whole entry, looked up): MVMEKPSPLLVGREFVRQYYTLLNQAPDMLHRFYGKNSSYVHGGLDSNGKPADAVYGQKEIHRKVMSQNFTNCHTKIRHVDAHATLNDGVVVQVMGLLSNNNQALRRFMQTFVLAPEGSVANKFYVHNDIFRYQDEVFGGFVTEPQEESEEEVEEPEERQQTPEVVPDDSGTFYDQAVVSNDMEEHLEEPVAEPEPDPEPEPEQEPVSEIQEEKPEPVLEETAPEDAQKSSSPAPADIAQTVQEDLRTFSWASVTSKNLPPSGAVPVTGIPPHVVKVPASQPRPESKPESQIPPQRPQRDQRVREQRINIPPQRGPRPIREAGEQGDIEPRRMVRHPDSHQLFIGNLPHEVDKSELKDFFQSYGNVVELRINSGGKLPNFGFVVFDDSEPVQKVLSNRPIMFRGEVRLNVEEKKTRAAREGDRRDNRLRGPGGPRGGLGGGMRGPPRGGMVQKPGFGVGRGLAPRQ
| Oligonucleotide | log2 enrichment |
| --- | --- |
| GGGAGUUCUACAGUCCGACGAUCUGUGCUACACAUCGUAUGUACCGAAUCGGGUUUUUUUGGGGUUUUUUUGGGGUUUUUUUGGGGAAAGUAUUAUGUUACGCCGUUCGGAUCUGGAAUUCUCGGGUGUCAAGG | -0.0142 |
| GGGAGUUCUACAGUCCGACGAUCGCAGGAAGUAAAAACAAAUGGCAAUGCUUCGGAUAGUGGCAGGGGUGGGGGUUGCUAAGGAAAGGGUGGGAUGGGAGUGGGUAAAGAGUUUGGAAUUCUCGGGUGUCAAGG | 1.32 |
| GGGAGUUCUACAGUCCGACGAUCUCCUGUGCUACACAUCGUAUGUACCGAAUCGGGCCCCCCGGGGCCCCCCGGCCCCCCGGAAAGUAUUAUGUUACGCCGUUCGGAUCUGCAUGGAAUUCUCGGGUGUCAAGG | -0.319 |
| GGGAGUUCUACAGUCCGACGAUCCCUCAAGUCCUGUGCUACACAUCGUAUGUACCGAAUCGGAGGAAAAAGGUGGAAAGUAUUAUGUUACGCCGUUCGGAUCUGCACUUCCAGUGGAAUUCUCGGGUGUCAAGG | -0.0474 |
| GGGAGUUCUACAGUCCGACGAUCCUCAAGUCCUGUGCUACACAUCGUAUGUACCGAAUCGGGCCGGGCCGGCCGGGGAAAGUAUUAUGUUACGCCGUUCGGAUCUGCACUUCCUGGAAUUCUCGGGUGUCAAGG | -0.379 |
| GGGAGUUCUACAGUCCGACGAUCUCCUGUGCUACACAUCGUAUGUACCGAAUCGGGUUUUUUGGGGUUUUUUGGUUUUUUGGAAAGUAUUAUGUUACGCCGUUCGGAUCUGCAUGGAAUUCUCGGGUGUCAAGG | -0.127 |
| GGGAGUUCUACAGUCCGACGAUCCACAGACAACACGCACCCACACAGACACAGAGGGAAGGGGUUAAAAUGGGGACAGGGUGCACAGCAGGGCGGGGUAGGACCCCAGCCCCUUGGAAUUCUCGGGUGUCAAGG | -0.0943 |
| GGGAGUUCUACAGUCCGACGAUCUCCUCAAGUCCUGUGCUACACAUCGUAUGUACCGAAUCGGUUUGGAGGAGGAAAGUAUUAUGUUACGCCGUUCGGAUCUGCACUUCCAGCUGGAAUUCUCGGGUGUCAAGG | -0.249 |
| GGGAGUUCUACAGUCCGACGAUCGUCCUGUGCUACACAUCGUAUGUACCGAAUCGGUUUUUGGGUUUUUGGGGUUUUUGGGGAAAGUAUUAUGUUACGCCGUUCGGAUCUGCAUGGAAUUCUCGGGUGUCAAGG | -0.168 |
| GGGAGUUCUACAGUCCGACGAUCUGUGAGCGGAGCCUGGAGGAGCUGCUGCACUACGUGGGCCAGCUGCGGGCUGAGCUGGCCAGCGCAGGUGGGUGGCCACCCUUGCAAGUGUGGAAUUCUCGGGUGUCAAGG | -0.411 |

Set 4 — method: protein binding microarray; form: double-stranded DNA, one strand shown; medium: in vitro; concentration: not given; relative to: not given; direction: higher = stronger binding
Target: Histone acetyltransferase KAT6A, winged helix 2, GST fusion (KAT6A, Homo sapiens, UniProt Q92794, residues 85-181)
Setting: 8-mer, flanks averaged, mean of 2 arrays, mostly near background
Construct (chain): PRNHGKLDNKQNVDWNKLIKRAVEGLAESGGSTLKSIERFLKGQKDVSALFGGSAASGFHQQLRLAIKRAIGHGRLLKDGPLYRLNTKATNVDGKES
| Oligonucleotide | E-score |
| --- | --- |
| CCACTATA | -0.0693 |
| GGTATCGA | 0.0809 |
| CCCTCTCC | -0.0432 |
| GTAGTTGA | 0.0857 |
| CCGGAGCA | 0.19 |
| CAAATGAA | 0.0789 |
| ACCACACG | -0.0249 |
| CTATCAAC | 0.168 |
| ATTCTCCA | 0.129 |
| GCAATAGA | -0.246 |
| ATCTTAAT | -0.0171 |
| GGGGGCAA | 0.132 |
| CATAAATG | -0.0988 |
| ATTGGTTA | 0.11 |
| ACATGAAT | -0.192 |
| ACATCAGC | 0.075 |
| GATGTCGA | 0.0537 |
| GTCAGCGA | -0.108 |
| ACAGGACT | -0.126 |
| AAAATATG | -0.0684 |
| ACGTGCCC | -0.185 |
| ATGGTGAG | -0.151 |
| CGCTGGCC | -0.0213 |
| CAGCACGG | 0.0957 |
| AATACTGG | -0.114 |

Repeated from above (set 2):
| Oligonucleotide | E-score |
| --- | --- |
| ACTTCTTG | -0.00379 |
| TCGTGAGA | -0.0666 |
| CAGATGCG | -0.12 |
| AACGCCGT | -0.125 |
| CGTTCGTC | -0.191 |
| AACGCTAT | 0.0603 |
| GCTTTGTA | 0.0763 |
| CGAGAACG | -0.0902 |
| CCCGACAA | 0.017 |
